# Results of several laboratories.
# Parts stem from different laboratories: compare values within a part only. Positions count from the first letter of the parent shown.

# Set 1
# Target: ABI1, truncated, D143A, DHFR fusion (Arabidopsis thaliana)
# Technique: DHFR PCA, deep sequencing
# Matrix: yeast
# Notes: methotrexate growth selection, single substitutions
# With: (+)-ABA 710 µM
# Reference: wild-type fitted maximum
# Reading: higher = stronger binding
# Starting sequence: PYL1, truncated, DHFR fusion (Arabidopsis thaliana); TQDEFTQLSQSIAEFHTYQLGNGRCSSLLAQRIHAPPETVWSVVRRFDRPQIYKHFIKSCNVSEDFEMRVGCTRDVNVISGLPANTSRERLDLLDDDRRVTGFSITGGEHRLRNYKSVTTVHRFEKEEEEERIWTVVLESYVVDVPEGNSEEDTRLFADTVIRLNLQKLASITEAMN; partner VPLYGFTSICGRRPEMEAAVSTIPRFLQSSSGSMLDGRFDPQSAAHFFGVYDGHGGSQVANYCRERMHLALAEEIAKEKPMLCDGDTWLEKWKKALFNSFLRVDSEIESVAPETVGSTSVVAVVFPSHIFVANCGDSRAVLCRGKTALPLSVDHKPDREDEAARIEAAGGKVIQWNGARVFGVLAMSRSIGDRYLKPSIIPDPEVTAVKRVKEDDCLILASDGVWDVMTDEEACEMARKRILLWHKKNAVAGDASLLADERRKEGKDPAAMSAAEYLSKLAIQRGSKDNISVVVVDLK
Change,relative binding score
D144T,86.2%
F157N,-22.1%
E38R,86.3%
P36I,91.3%
D97A,117%
S171P,23.2%
D65R,98.9%
P83F,25.3%
S117Y,-13%
N85R,103%
H16R,36.4%
E131K,114%
E152F,91.5%
Q31D,19.7%
E4S,92.2%
L169T,19.6%
S59W,91.6%
G23A,98.7%
T135N,0.563%

# Set 2
# Target: Interferon regulatory factor 7, full length, phosphomimetic (IRF7, Homo sapiens, UniProt Q92985, residues 1-503, S471D/S472D/S475D/S476D/S477D/S483D/S484D/S487D)
# Technique: protein-binding microarray
# Form: double-stranded DNA, one strand shown
# Matrix: in vitro
# Tested at: 2200 nM top
# Notes: 60-bp whole probe
# With: salmon DNA 0.4 mg/ml
# Reference: random background probes
# Reading: higher = stronger binding
# All sequences stand within: GCCTAGCAC … GTCTTGATTCGCTTGACGCTGCTG
# Construct (chain): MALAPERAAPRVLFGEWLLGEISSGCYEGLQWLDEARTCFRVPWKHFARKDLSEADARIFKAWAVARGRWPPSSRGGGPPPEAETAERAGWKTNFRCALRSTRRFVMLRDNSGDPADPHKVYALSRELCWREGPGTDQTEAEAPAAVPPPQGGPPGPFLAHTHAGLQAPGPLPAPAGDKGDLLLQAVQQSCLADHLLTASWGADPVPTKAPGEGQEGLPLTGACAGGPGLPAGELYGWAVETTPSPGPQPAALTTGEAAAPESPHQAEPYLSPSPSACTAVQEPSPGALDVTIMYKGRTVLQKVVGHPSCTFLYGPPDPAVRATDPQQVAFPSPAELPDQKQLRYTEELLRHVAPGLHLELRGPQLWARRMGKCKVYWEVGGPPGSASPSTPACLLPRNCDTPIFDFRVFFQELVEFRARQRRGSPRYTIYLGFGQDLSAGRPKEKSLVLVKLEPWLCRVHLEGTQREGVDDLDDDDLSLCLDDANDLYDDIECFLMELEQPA
Strand,fitted relative affinity [z-score]
GACGGACTGGTCACTGGGGACGTGCTA,-1.11
AGACTTTTTTCAGACCTGTCGTGCTAG,0.563
TTAGGTTTTGACTTTCGGTTAGTGCTA,6.5
TTAGGTCTCCTTTTCCATTAGTGCTAG,1.86
ATGAAATGCCACACACACACGTGCTAG,0.398
TTAGATTCCAGTTTCGGTTAGTGCTAG,8.75
TTAGGAGTCAACTCTCTAATTGTGCTA,-0.51
GACGGTTACGGGACTGGGGACGTGCTA,-0.443
GACGCTTTCGGGTATCGGGACGTGCTA,6.76
GACGGTTCCGACTATCGGGACGTGCTA,0.176
TTGGAACTGAGTATCGATTAGTGCTAG,0.0607
TTAGTTTTCGACTTTCGGTTAGTGCTA,11.4
GACGGTATTCTTTTCCTGACGTGCTAG,1.09
GACGATCTCAGACTGGAAACGTGCTAG,-0.0601
TGGAACTTAAAAGAAAGATAGTGCTAG,-1.42
TTAGGTTTCGGTCTCGGTTTGTGCTAG,7.55
GACGAACTGAGACTGGAGTCGTGCTAG,0.01
CTAGGACTGGGACTGGGTTAGTGCTAG,-1.19
GCCGAACTGGGGACTGGAGACGTGCTA,-0.709
GACGGACTGGGGTTTCGGGTCGTGCTA,2.74
TGCTTCTAACAGAGGAGGTTGTGCTAG,-0.182
CTCTGCTTGTATCTGGGTTCGTGCTAG,1.18

# Set 3
# Target: RING finger protein unkempt homolog, zinc fingers 1-6, GST-SBP tag (UNK, Homo sapiens, UniProt Q9C0B0, residues 30-357)
# Sequence of UniProt Q9C0B0 (30-357, looked up): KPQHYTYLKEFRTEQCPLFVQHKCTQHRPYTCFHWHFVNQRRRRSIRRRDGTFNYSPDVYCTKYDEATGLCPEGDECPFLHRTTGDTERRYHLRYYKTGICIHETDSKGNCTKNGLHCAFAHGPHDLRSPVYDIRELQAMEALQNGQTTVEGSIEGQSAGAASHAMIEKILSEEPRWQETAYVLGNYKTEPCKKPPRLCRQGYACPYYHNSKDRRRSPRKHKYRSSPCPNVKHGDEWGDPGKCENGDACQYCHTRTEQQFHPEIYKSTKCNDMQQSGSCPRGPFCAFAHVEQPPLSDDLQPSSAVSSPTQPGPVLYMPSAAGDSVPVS
# Technique: RNA Bind-n-Seq
# Form: RNA
# Matrix: in vitro
# Tested at: not given
# Notes: RNA with constant flanks, human-mouse chimeric sites, ends assumed
# Reference: input RNA pool
# Reading: higher = stronger binding
# All sequences stand within: GGGAGUUCUACAGUCCGACGAUC … CAACAGAGGAUUGAGCAUCA
Strand,bound/input enrichment
ACACAAUAUGAGACCAACAGCAUGGACUUCAAAGUUGGGGCGGAUGGGACAGUCUUCGCCACCCGGGAGCUGCAGGUCCCCUCCGAGCAGGUGGCGUUUACCGUCACUGCAUGGGACAGC,0.186 ratio
CUGUGACCACAAGAUCCUACCUGAGUGGCAGCUGAAGUUGACUCCCUCUCCUUGCCUGAACCCCCCCCCACUGCCCCCCCAUCCCCCGCAGAAUUCCAUUCUCUGGUCUCUGCACGGUUC,1.32 ratio
CAGCCUCAGAGCCCAGACUUCCUGGACAUUACCAACCCUAAAGCGGUAUUAGAAAAUGCAUUGAGAAACUUUGCCUGUCUGACGACUGGAGAUGUGAUUGCUAUCAACUACAAUGAGAAG,0.469 ratio
ACUCAGAGAUCCACCUCAAUUGAAGUGGGGAGUAAAGGUGUGGCCACCACACCUAACUUGAUGGAUAUAUAUUUUUUUUAAUAUGAAUCUUCCUGUUCUUCAUCCAGAGAAAGAUUUGUU,0.348 ratio
GAUCAUGAACCACCAUCAGAAAUGAAGAUGAGAUUACCCAGACGAGCCAAAACAGCUGCGCUACAGAAAAGUAAACUUUAACCUUGCCCAAUUUCUCAUGAAGAUACAAGUUAAGAGAGC,0.382 ratio
UCCUUGGACCCCAGUCAUAUAGGUGACCUGCAGAAAGCAGACACCAGUAGUCAAGGUGCUUUAGUGUUUCUCUCAAAGGACUACGAAAUAGAAAAUCAAAAUCCCCUGGCCUCUCCUACG,2.37 ratio
AAAGUGAUGACUAUGUUUGUCCAACGACAGGUGUUUGCGGAGAGCAAAGAUGAGAUUGCGUUAGUCCUGUUUGGUACAGAUGGCACUGAUAAUGCCCUUGCUGGCAAGGACCAGUAUCAG,0.147 ratio
AGAAUCUUGGGACUGUUUUACUUAAUUGGUCAUUGAUAGCUUAACAAGCAUGGAGAUAAGAUUAGAAAUCUUGACAUCAACAGGUAUCAAGCAGAAAAAACCAUGGCCACGUGUCUCCUG,0.127 ratio
AACUUCGUGCAUCGGUUUCCUUUUGUAGCUGUUUCAAUUGGCUUCCUUGUGAAUAAAGAGAUGGAGUUUGGAAUUGUGUACAGCUGUGUGGAAGGCAAGAUGUACACCGGCAGGAAAGGG,0.35 ratio
UUCAAAGAAAAGGGCAGCUGUGUCAUUUCAUAAGUAAAACUGCAUCCUAAGUGGAAGGUUCUUUUGUUUAAUUUUCCCCCAAAUGAAGCCAAAGUGUGUGUUGAAGAACUGAGAAAAAAU,0.322 ratio
UCCCAAAUCCAGCAGCUAGAAGGAGCCUUGAGACAAACACUCCACACACAGGGAAGGCAAUAGCUUUGUACAUUGGUUUACAUUUUUUCCCCCUGUGUUUUCUAGGGGAGGUCAUAGUGC,0.854 ratio

# Set 4
# Target: Prothrombin, mature alpha-thrombin (F2, Homo sapiens, UniProt P00734)
# Technique: aptamer microarray, sandwich
# Form: DNA with 2'F-ANA
# Matrix: in vitro
# Tested at: 200 nM
# Notes: whole 15-mer aptamer, many near background
# With: Cy3 exosite-II aptamer, 400 nM
# Reading: higher = stronger binding
# Strand: GGTTGGTGTGGTTGG
Modification,mean fluorescence intensity
2'F-ANA at 3 4 6 7 9 10 12 14 15,180 a.u.
2'F-ANA at 5 6 7 10 12 13 14 15,43.6 a.u.
2'F-ANA at 1 3 6 7 8 11 12 13,458 a.u.
2'F-ANA at 2 4 5 6 8 12 15,188 a.u.
2'F-ANA at 2 3 4 6 11 13,383 a.u.
2'F-ANA at 1 4 8 9 12 14,57.1 a.u.
2'F-ANA at 1 2 5 9 11 13 15,62.5 a.u.
2'F-ANA at 1 3 6 7 9 11 14 15,73.9 a.u.
2'F-ANA at 1 4 8 9 13,80.6 a.u.
2'F-ANA at 1 2 6 7 8 11 12,307 a.u.
2'F-ANA at 4 5 8 13 14 15,46.6 a.u.
2'F-ANA at 3 5 8 9 10 13,57.5 a.u.
2'F-ANA at 2 3 5 6 9 10 12 13 14,52.5 a.u.
2'F-ANA at 3 7 9 11 13 15,956 a.u.
2'F-ANA at 3 5 7 10 15,53.5 a.u.
2'F-ANA at 4 7 8 9 10 13 14 15,63.9 a.u.
2'F-ANA at 1 4 5 7 8 14,52.5 a.u.
2'F-ANA at 2 3 4 5 6 7 8 9 10 15,52.1 a.u.
2'F-ANA at 1 2 3 4 5 8 9,94.9 a.u.
2'F-ANA at 1 2 5 10 12 13 14 15,45.1 a.u.
2'F-ANA at 1 4 6 7 8 9 12 13 14 15,56 a.u.
2'F-ANA at 1 7 8 10 13,57 a.u.
2'F-ANA at 1 2 4 5 6 7 8 9 10 11 12 13 14 15,60.2 a.u.
2'F-ANA at 3 4 5 7 10 11 12 13 14 15,49.3 a.u.
2'F-ANA at 1 3 5 7 8 9 10 11 14,45.6 a.u.

# A few entries again (set 3):
Strand,bound/input enrichment
UCCUUGGACCCCAGUCAUAUAGGUGACCUGCAGAAAGCAGACACCAGUAGUCAAGGUGCUUUAGUGUUUCUCUCAAAGGACUACGAAAUAGAAAAUCAAAAUCCCCUGGCCUCUCCUACG,2.37 ratio
UCCCAAAUCCAGCAGCUAGAAGGAGCCUUGAGACAAACACUCCACACACAGGGAAGGCAAUAGCUUUGUACAUUGGUUUACAUUUUUUCCCCCUGUGUUUUCUAGGGGAGGUCAUAGUGC,0.854 ratio
CAGCCUCAGAGCCCAGACUUCCUGGACAUUACCAACCCUAAAGCGGUAUUAGAAAAUGCAUUGAGAAACUUUGCCUGUCUGACGACUGGAGAUGUGAUUGCUAUCAACUACAAUGAGAAG,0.469 ratio
AGAAUCUUGGGACUGUUUUACUUAAUUGGUCAUUGAUAGCUUAACAAGCAUGGAGAUAAGAUUAGAAAUCUUGACAUCAACAGGUAUCAAGCAGAAAAAACCAUGGCCACGUGUCUCCUG,0.127 ratio
CUGUGACCACAAGAUCCUACCUGAGUGGCAGCUGAAGUUGACUCCCUCUCCUUGCCUGAACCCCCCCCCACUGCCCCCCCAUCCCCCGCAGAAUUCCAUUCUCUGGUCUCUGCACGGUUC,1.32 ratio
